Measured values of several laboratories.
A part holds a random share of what one study measured. Several values in a cell are separate wells, animals, samples, runs or records.
Chain of UniProt P49760 (whole entry, looked up): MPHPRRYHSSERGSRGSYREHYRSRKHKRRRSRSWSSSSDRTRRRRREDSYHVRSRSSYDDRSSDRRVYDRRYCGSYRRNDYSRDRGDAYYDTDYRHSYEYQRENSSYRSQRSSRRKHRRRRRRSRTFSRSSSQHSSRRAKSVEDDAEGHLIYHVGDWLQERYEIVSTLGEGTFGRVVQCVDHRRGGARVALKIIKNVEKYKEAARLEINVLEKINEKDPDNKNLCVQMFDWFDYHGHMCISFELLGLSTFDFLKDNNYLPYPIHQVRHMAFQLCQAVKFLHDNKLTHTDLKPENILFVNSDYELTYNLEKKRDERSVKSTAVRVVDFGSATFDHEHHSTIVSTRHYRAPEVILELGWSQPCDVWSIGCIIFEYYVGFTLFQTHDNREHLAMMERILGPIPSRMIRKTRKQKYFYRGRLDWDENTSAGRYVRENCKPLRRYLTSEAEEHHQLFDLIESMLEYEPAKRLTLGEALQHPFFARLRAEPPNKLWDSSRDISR
Chain of UniProt Q9NYY3 (whole entry, looked up): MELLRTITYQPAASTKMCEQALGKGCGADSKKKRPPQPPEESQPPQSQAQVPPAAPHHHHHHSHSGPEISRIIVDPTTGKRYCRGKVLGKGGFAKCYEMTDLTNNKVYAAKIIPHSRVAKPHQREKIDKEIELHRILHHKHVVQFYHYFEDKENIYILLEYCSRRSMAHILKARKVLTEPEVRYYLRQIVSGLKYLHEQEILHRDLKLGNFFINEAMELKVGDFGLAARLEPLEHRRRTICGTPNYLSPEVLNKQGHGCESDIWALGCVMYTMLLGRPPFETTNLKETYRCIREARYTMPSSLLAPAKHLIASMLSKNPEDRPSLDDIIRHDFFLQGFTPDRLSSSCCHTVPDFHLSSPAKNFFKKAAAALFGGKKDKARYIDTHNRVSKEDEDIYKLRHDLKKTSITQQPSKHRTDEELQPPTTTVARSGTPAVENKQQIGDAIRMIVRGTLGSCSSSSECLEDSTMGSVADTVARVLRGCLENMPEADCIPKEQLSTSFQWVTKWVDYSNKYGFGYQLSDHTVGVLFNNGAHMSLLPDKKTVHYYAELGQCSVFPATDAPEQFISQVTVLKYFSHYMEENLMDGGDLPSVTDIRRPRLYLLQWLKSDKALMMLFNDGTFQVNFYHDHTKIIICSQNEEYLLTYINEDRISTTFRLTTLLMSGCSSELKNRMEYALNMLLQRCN
Chain of UniProt Q9NRH2 (whole entry, looked up): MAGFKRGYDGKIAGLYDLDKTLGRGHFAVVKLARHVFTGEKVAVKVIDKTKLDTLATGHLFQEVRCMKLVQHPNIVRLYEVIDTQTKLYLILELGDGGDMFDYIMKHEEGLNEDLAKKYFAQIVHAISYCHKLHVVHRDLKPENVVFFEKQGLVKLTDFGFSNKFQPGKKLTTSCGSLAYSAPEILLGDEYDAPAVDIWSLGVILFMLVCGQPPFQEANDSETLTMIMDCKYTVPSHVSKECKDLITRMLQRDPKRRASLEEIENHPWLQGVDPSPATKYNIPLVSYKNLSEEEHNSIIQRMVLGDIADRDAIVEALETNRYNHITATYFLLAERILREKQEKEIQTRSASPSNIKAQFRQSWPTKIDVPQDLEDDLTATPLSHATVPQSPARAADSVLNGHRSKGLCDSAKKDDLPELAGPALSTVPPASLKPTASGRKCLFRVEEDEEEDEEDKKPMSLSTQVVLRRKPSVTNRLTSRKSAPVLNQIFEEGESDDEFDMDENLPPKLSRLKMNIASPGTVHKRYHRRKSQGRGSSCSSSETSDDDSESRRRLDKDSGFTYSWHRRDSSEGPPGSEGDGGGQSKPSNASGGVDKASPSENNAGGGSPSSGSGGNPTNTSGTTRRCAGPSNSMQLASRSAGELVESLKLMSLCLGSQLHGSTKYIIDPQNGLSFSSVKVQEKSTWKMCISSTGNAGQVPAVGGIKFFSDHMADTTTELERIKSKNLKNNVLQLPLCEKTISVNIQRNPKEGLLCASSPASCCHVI

Block 1 — technique: competitive binding panel; tested at: 1 µM; baseline: vehicle
SMILES: Cc1ccc(NC(=O)c2ccnc(C(F)(F)F)c2)cc1-c1cc(OCCO)nc(N2CCOCC2)c1
target | assay | remaining binding [%]
Insulin receptor-related protein (INSRR, Homo sapiens, UniProt P14616) |  | 82
Membrane-associated tyrosine- and threonine-specific cdc2-inhibitory kinase (PKMYT1, Homo sapiens, UniProt Q99640) |  | 93
Serine/threonine-protein kinase 32B (STK32B, Homo sapiens, UniProt Q9NY57) | item: YANK2 | 97
SNF-related serine/threonine-protein kinase (SNRK, Homo sapiens, UniProt Q9NRH2) |  | 100
Receptor-interacting serine/threonine-protein kinase 4 (RIPK4, Homo sapiens, UniProt P57078) |  | 91
Protein-tyrosine kinase 2-beta (PTK2B, Homo sapiens, UniProt Q14289) | item: PYK2 | 100
Glycogen synthase kinase-3 alpha (GSK3A, Homo sapiens, UniProt P49840) |  | 100
Tyrosine-protein kinase ABL1 (ABL1, Homo sapiens, UniProt P00519, F317I) |  | 85
Calcium/calmodulin-dependent protein kinase type 1G (CAMK1G, Homo sapiens, UniProt Q96NX5) |  | 100
Tyrosine-protein kinase Fgr (FGR, Homo sapiens, UniProt P09769) |  | 80
Dual specificity protein kinase CLK2 (CLK2, Homo sapiens, UniProt P49760) |  | 100
Leukocyte tyrosine kinase receptor (LTK, Homo sapiens, UniProt P29376) |  | 93
Tyrosine-protein kinase Mer (MERTK, Homo sapiens, UniProt Q12866) |  | 89
Mitogen-activated protein kinase kinase kinase kinase 4 (MAP4K4, Homo sapiens, UniProt O95819) |  | 88
Serine/threonine-protein kinase PLK2 (PLK2, Homo sapiens, UniProt Q9NYY3) |  | 78

Block 2 — effect on: enzyme activity; mode: inhibitor; tested at: 77 µM; baseline: untreated
Target: DNA polymerase theta, ATPase domain (POLQ, Homo sapiens, UniProt O75417)
Chain of UniProt O75417 (whole entry, unmodified, looked up): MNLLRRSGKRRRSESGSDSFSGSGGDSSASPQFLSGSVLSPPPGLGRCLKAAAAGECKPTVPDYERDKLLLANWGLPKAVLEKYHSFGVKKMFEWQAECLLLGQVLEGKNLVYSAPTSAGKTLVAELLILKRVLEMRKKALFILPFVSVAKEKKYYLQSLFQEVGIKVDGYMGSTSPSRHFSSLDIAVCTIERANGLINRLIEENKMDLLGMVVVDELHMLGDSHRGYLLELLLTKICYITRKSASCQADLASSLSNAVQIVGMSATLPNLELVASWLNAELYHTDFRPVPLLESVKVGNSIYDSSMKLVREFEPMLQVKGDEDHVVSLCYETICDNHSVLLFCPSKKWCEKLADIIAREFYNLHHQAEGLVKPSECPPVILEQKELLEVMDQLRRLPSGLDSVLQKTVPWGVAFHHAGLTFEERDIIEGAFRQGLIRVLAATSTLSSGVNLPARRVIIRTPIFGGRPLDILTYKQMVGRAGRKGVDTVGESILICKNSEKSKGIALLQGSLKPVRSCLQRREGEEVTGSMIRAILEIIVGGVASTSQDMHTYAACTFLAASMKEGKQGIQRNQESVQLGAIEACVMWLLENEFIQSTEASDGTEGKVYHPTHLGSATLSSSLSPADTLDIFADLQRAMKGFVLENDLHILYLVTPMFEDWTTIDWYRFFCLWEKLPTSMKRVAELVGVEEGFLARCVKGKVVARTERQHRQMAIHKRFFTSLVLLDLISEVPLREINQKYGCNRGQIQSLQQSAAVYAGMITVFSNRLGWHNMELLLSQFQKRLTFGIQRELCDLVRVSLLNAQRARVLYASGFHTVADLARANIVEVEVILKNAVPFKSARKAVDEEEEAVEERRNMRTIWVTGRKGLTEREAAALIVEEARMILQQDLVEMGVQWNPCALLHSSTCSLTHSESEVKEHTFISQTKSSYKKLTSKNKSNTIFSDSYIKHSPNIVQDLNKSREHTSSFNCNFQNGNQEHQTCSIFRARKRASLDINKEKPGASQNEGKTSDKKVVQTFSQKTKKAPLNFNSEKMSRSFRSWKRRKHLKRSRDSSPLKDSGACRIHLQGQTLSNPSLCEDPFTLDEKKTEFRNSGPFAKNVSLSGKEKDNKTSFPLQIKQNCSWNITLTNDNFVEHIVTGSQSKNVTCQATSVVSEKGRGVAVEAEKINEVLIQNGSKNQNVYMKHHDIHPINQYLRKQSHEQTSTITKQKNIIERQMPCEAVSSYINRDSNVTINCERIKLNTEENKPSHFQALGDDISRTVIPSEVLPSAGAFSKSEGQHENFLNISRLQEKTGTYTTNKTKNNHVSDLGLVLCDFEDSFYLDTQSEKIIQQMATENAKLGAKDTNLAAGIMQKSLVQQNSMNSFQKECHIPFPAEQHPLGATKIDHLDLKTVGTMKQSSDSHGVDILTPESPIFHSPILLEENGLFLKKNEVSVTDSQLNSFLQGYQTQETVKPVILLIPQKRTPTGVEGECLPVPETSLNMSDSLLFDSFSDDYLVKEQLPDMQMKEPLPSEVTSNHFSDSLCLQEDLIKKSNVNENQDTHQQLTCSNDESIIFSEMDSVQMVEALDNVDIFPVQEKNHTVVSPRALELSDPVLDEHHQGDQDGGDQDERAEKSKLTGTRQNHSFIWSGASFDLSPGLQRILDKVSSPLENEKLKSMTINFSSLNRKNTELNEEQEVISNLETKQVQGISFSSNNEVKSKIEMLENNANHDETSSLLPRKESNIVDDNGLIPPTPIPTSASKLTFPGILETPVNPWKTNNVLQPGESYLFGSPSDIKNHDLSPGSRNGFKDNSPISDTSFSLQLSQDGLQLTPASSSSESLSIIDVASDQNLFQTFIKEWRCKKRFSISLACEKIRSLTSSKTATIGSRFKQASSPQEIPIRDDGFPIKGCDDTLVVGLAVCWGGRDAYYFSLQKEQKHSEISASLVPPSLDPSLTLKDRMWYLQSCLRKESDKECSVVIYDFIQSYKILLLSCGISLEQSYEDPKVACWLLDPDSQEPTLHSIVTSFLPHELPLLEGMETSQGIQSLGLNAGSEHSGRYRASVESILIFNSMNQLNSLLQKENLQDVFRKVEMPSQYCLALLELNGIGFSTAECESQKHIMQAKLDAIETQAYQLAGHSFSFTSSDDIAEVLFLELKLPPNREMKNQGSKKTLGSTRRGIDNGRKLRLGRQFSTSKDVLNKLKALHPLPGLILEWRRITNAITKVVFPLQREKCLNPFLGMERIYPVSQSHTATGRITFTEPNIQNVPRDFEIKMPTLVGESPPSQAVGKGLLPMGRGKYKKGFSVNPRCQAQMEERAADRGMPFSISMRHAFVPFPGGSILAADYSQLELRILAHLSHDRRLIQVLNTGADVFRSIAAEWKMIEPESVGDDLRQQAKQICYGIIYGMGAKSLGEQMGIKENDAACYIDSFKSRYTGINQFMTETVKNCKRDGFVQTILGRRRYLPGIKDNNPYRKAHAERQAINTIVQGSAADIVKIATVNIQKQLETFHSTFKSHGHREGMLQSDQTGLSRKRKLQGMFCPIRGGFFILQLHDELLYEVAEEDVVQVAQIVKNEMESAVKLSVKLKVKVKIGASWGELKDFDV
SMILES | remaining activity
CCc1cccc(CC)c1NC(=O)CN(CC(=O)O)CC(=O)O | 100%
COc1ccc(-c2ccc3ncc4c(c3c2)n(-c2ccc(N3CCNCC3)c(C(F)(F)F)c2)c(=O)n4C)cn1 | 83%
CO/N=C(\C(=O)N[C@@H]1C(=O)N2C(C(=O)OCOC(=O)C(C)(C)C)=C(/C=C\c3scnc3C)CS[C@H]12)c1csc(N)n1 | 97.2%
CC1=CC(=O)c2ccccc2C1=O | 92.3%
CC(=O)N(CC(O)CN(C(C)=O)c1c(I)c(C(=O)NC[C@@H](O)CO)c(I)c(C(=O)NC[C@@H](O)CO)c1I)c1c(I)c(C(=O)NC[C@@H](O)CO)c(I)c(C(=O)NC[C@@H](O)CO)c1I | 102%
O=C(N[C@H](CO)[C@H](O)c1ccc([N+](=O)[O-])cc1)C(Cl)Cl | 102% and 90.8%
O=C(O)c1cccc(-c2noc(-c3ccccc3F)n2)c1 | 84.6%
COc1cc(/C=C/C(=O)CC(=O)/C=C/c2ccc(O)c(OC)c2)ccc1O | 95.1%
O=[N+]([O-])c1ccc(CSc2ncnc3c2ncn3[C@@H]2O[C@H](CO)[C@@H](O)[C@H]2O)cc1 | 102%
OC1(c2ccc(Cl)c(C(F)(F)F)c2)CCN(CCCC(c2ccc(F)cc2)c2ccc(F)cc2)CC1 | 101%
O=C1C(CC[S+]([O-])c2ccccc2)C(=O)N(c2ccccc2)N1c1ccccc1 (centres unmarked) | 98.8%
O=C1C(SCCO)=C(SCCO)C(=O)c2ccccc21 | 79%
O=c1oc(Cl)c(Cl)c2ccccc12 | 99.3%
Oc1c(I)cc(Cl)c2cccnc12 | 110%

Block 3 — technique: competition with immobilised ligand; tested at: 1 µM
SMILES: Cc1nc(C2CCN(C(=O)c3ccc(OC(F)(F)F)cc3N)CC2)c2ncc(N3CCN(C)CC3)cc2n1
target | assay | remaining binding
Mitogen-activated protein kinase 3 (MAPK3, Homo sapiens, UniProt P27361) | cell-free assay | 98%
Phosphatidylinositol 4-phosphate 5-kinase type-1 alpha (PIP5K1A, Homo sapiens, UniProt Q99755) | cell-free assay | 63%
Myosin-IIIb (MYO3B, Homo sapiens, UniProt Q8WXR4) | binding | 71%
Serine/threonine-protein kinase PLK3 (PLK3, Homo sapiens, UniProt Q9H4B4) | cell-free assay | 100%
Dual specificity protein kinase CLK2 (CLK2, Homo sapiens, UniProt P49760) | cell-free assay | 100%
Casein kinase I isoform epsilon (CSNK1E, Homo sapiens, UniProt P49674) | cell-free assay | 100%
Serine/threonine-protein kinase ICK (CILK1, Homo sapiens, UniProt Q9UPZ9) | cell-free assay | 84%
Discoidin domain-containing receptor 2 (DDR2, Homo sapiens, UniProt Q16832) | cell-free assay | 92%
Serine/threonine-protein kinase 35 (STK35, Homo sapiens, UniProt Q8TDR2) | cell-free assay | 100%
Platelet-derived growth factor receptor beta (PDGFRB, Homo sapiens, UniProt P09619) | cell-free assay | 95%
Mitogen-activated protein kinase kinase kinase kinase 3 (MAP4K3, Homo sapiens, UniProt Q8IVH8) | cell-free assay | 100%
Tyrosine-protein kinase JAK1, JH2 (JAK1, Homo sapiens, UniProt P23458) | cell-free assay | 90%
Receptor-type tyrosine-protein kinase FLT3 (FLT3, Homo sapiens, UniProt P36888) | cell-free assay | 100%
Calcium/calmodulin-dependent protein kinase type 1 (CAMK1, Homo sapiens, UniProt Q14012) | cell-free assay | 100%
Casein kinase I isoform gamma-2 (CSNK1G2, Homo sapiens, UniProt P78368) | cell-free assay | 93%
Cyclin-dependent kinase 4 (CDK4, Homo sapiens, UniProt P11802) | cell-free assay | 100%
Calcium/calmodulin-dependent protein kinase kinase 2 (CAMKK2, Homo sapiens, UniProt Q96RR4) | cell-free assay | 100%
Proto-oncogene tyrosine-protein kinase receptor Ret (RET, Homo sapiens, UniProt P07949, V804M) | cell-free assay | 100%

Block 4 — effect on: enzyme activity; mode: inhibitor; tested at: 0.5 µM; baseline: control
Target: Serine/threonine-protein kinase 25 (STK25, Homo sapiens, UniProt O00506)
Chain of UniProt O00506 (whole entry, looked up): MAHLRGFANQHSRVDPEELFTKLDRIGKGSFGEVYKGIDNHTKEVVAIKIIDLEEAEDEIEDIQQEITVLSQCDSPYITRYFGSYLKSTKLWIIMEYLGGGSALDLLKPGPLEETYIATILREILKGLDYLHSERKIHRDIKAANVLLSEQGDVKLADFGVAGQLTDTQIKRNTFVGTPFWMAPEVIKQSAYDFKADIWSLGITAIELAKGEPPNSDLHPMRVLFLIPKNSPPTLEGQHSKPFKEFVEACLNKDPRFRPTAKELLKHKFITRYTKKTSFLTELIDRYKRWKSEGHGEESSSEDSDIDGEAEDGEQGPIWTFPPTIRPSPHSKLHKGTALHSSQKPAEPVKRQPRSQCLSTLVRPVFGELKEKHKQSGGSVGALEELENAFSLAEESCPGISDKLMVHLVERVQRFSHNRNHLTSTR
SMILES | remaining activity [%]
CC(C)n1cnc2c(Nc3cccc(Cl)c3)nc(NCCO)nc21 | 92.9
c1cc(-c2cnn3cc(-c4ccc(OCCN5CCCCC5)cc4)cnc23)ccn1 | 91.1
O=C(O)/C=C/c1cc(Br)c(Br)c(Br)c1Br | 87.2
FC(F)(F)c1ccc(/C=C/c2nc(COc3ccc(CCCCn4ccnn4)cc3)co2)cc1 | 91.8
CCN(CC)CCCCN1c2ccccc2Oc2ccc(Cl)cc21 | 92.6
NC(=O)c1ccc(-c2nc(-c3ccc4c(c3)OCCO4)c(-c3ccccn3)[nH]2)cc1 | 91.3
Clc1ccc(Nc2nnc(Cc3ccncc3)c3ccccc23)cc1 | 94
COc1cc2c(N3CCN(C(=O)Nc4ccc(OC(C)C)cc4)CC3)ncnc2cc1OCCCN1CCCCC1 | 93.4
N#C/C(=C(/N)SC1C=CC=CC1)c1cccc(C(O)c2ccncc2)c1 (centres unmarked) | 99.9
CCCCc1c(-c2ccc(O)cc2)[nH]c2nccnc12 | 91.4
O=C(c1ccccc1)c1ccc(N2CCOCC2)cc1O | 100
N#CC(c1ccnc(NCCc2cccnc2)n1)c1nc2ccccc2s1 (centres unmarked) | 97.7
